{"data": "Results gathered from unrelated publications", "note": "Each numbered part is a random draw from the data of one study; scales do not carry over between parts. Substitutions count along the parent as printed.", "chain of UniProt O24410 (whole entry, looked up)": "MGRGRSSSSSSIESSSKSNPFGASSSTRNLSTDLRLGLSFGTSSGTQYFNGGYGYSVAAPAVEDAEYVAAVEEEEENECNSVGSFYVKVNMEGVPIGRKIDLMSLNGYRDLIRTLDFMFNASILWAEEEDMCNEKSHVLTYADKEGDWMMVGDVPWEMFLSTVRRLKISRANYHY", "chain of UniProt Q9XID4 (whole entry, looked up)": "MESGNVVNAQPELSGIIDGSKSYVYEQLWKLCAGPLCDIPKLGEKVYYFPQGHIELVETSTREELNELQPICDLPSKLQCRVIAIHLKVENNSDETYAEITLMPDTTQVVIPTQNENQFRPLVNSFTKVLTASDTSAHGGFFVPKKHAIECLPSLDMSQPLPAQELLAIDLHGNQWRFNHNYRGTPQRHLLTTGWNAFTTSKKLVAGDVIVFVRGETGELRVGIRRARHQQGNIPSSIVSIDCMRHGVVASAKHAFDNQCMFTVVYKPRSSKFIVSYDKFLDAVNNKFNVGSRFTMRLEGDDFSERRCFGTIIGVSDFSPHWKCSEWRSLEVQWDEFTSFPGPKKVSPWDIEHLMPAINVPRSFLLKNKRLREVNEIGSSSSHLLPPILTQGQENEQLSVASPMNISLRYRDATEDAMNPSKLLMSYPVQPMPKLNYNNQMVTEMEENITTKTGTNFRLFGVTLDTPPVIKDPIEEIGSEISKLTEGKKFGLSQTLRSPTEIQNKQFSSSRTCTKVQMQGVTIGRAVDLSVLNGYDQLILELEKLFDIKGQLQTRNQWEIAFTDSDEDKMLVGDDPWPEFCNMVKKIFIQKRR", "chain of UniProt Q94JM3 (whole entry, looked up)": "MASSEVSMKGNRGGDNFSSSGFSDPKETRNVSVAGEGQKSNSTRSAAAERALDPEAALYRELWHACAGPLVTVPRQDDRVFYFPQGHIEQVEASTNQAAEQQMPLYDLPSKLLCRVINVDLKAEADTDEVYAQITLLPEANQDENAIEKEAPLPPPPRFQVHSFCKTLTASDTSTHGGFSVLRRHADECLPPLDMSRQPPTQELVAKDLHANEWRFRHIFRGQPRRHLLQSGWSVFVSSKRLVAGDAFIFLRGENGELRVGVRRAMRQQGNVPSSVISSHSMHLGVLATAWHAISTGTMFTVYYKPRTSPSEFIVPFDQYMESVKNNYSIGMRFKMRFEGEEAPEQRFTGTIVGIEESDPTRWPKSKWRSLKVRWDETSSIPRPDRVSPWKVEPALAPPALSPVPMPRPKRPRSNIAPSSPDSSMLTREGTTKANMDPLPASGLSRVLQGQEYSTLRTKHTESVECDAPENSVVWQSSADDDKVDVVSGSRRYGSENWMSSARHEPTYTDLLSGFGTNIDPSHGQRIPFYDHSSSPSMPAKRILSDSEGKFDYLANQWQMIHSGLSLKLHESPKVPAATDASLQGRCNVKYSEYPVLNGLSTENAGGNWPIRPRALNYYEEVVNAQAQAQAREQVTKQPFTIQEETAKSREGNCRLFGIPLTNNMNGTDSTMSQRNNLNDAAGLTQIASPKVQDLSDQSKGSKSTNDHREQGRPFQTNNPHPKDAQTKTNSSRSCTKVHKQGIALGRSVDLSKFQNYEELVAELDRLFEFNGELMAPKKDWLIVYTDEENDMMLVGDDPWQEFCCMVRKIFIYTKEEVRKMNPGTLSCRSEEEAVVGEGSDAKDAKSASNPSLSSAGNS", "chain of UniProt Q93WC4 (whole entry, looked up)": "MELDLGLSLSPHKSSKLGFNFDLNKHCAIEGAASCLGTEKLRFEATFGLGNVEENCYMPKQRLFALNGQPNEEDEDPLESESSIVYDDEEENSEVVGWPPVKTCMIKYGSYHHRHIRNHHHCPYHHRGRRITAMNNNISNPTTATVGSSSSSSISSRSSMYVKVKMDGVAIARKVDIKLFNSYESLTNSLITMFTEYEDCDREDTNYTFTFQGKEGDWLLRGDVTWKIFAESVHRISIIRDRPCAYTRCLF", "chain of UniProt O15294 (whole entry, looked up)": "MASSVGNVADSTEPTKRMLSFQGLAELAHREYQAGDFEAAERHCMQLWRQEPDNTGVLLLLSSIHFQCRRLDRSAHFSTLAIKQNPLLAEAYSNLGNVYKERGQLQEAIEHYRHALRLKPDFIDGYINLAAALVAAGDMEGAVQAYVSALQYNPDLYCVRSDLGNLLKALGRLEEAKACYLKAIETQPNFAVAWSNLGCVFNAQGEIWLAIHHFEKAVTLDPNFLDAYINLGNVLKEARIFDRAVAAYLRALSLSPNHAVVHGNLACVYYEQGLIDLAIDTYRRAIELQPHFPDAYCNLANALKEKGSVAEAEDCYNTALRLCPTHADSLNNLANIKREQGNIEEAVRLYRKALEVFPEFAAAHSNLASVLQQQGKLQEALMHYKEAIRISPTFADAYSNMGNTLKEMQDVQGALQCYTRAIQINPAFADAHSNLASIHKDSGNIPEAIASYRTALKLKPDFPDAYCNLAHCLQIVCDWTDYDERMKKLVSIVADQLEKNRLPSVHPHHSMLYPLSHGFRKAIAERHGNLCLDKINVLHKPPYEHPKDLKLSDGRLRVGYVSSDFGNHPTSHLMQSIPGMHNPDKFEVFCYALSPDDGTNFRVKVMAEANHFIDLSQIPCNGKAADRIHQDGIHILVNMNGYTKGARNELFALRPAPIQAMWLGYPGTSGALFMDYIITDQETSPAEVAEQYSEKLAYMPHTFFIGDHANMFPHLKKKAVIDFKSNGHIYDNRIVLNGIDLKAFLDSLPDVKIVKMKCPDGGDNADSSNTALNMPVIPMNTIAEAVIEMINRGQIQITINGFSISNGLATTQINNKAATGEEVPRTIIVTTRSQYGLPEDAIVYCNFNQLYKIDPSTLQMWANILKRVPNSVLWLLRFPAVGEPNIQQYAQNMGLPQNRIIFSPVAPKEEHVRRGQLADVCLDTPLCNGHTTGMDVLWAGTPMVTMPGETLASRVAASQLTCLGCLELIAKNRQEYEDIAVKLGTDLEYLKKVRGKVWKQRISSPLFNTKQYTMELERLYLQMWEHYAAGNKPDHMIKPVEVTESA", "chain of UniProt O24408 (whole entry, looked up)": "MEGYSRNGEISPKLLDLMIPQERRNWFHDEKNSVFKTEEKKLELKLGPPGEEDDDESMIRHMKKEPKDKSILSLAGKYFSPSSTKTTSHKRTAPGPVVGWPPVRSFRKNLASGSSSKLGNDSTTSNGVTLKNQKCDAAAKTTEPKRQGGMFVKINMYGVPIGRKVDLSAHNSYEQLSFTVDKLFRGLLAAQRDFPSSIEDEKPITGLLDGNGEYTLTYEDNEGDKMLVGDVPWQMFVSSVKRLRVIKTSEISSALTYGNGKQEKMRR", "chain of UniProt P93024 (whole entry, looked up)": "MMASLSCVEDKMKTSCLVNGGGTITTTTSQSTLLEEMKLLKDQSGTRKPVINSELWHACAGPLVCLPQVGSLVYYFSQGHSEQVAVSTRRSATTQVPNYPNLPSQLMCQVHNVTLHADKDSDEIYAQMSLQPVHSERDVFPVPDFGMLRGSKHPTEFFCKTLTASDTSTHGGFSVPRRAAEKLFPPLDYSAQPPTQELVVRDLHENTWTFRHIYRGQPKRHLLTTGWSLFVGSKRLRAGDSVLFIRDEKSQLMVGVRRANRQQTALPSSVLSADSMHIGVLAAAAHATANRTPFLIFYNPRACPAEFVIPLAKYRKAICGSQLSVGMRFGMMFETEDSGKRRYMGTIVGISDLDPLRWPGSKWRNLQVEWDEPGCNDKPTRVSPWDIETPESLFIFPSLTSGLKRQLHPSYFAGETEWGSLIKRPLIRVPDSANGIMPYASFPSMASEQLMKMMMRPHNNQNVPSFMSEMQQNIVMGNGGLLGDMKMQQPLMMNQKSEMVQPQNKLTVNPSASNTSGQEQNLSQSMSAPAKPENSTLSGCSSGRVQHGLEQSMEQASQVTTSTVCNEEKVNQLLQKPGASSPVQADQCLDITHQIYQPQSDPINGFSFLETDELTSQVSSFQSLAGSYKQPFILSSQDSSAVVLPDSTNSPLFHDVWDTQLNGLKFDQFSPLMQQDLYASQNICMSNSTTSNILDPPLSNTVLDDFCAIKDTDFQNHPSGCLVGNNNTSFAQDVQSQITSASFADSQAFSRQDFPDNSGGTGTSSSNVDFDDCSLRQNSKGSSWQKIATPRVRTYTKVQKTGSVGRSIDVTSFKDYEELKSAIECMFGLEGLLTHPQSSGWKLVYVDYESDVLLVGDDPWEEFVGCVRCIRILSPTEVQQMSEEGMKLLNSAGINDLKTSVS"}
{"data": "Sample 1", "target": "RNA binding protein fox-1 homolog 2, RRM domain, GST-SBP tag (RBFOX2, Homo sapiens, UniProt O43251-10, residues 100-194)", "method": "RNA Bind-n-Seq", "form": "RNA", "matrix": "in vitro", "tested at": "365 nM", "setting": "natural RNA segment, single round, ends assumed", "reference": "no-protein control", "direction": "higher = stronger binding", "constant ends, left off below": "GGGAGUUCUACAGUCCGACGAUC … UGGAAUUCUCGGGUGCCAA", "Target sequence (chain)": "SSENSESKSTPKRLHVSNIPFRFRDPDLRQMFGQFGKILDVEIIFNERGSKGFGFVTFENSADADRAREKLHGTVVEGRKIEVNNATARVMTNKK"}
{"Sequence": "GACACCAAAUGGAAGAAGCACAUCAAGACUGUUCUCCUGCGGCCAACACUGGCCCGGAAGCCGCCCUCCAUACAGGCCCUCAGGGGGCCUGCCUUCUGCGCCUCAGUCCC", "RBNS enrichment (R)": 0.311}
{"Sequence": "AUGACAUUCUGGCCUUGGACAGAUUCUGUUGUCCUCGACGCGUCUCUUUAUAAAGUGGUAAAAGCCUGAAAUUCAGGGCAGCUCUCCAUGAGGUGCUGAAGGGCUCUUUU", "RBNS enrichment (R)": 0.213}
{"Sequence": "GGGGCCGCCGCCUCUUUCAAGCAGUCGUGCCUGUGUCCAUGCGCUCAGGGCCAUGCUGAGGCCUGGGCCGCUGCCACGUUGGAGAAGCCCGUGUGAGAAGUGAAUGCUGG", "RBNS enrichment (R)": 4.68}
{"Sequence": "AAACAUUCUGGAGUAUGUAUAGCUUUAAUGAAUGAAAUUUAAUGGACCUGAUUAAAAUGAAGGGAUUUAAUCGUUGUUAAAGUUAAGUUAGUCAAAUAAAUUACCUACUG", "RBNS enrichment (R)": 0.675}
{"Sequence": "UAUUAUACAUGUAUAUGCUGGGUCCUUUUUCAGAAACUCUUUUCUUACCUGAGAGUUGUCUUGUUUUCUGGGCUGUUUUUAACUGAGGAAAAAAAAAAUGCUUUCCUGCC", "RBNS enrichment (R)": 2.32}
{"Sequence": "AGGAAGACCCUCCAUCCUCUGGUAUUAACGCCUUAAUGCCCCUGUCUUUUACUGUAAGUUACUUAAGAUCAUUUUUGGAAGCAGGCGUGGUAGAGUCCUGUAAAUGAAUG", "RBNS enrichment (R)": 0.452}
{"Sequence": "UUAUAGUAGUUUUAUAAUCCUGAAAUUCGAAAGCUUUCCCAAUUGCACUUGCAUCUAAACAAAACUGUUGCAGUUUUUACUCUAUUUAUUUUGUUCCCCAUGUUUAUGAA", "RBNS enrichment (R)": 8.55}
{"Sequence": "CUCCCUGUCACCCUGGACCCGUCCAGGCCAGCGCACCUUCUUUCUUACUAGUCUGUUUUACUGGCUGAGACACCCUAUUUGGCAUUUUCACUGCUGGCUGGUGUGAUGGG", "RBNS enrichment (R)": 0.489}
{"data": "Sample 2", "Sequence": "B1 (IAA2)", "method": "two-hybrid", "reference": "out of 4 tests", "direction": "higher = firmer interaction", "B1": "IAA2 (Arabidopsis thaliana, UniProt P49678); chain MAYEKVNELNLKDTELCLGLPGRTEKIKEEQEVSCVKSNNKRLFEETRDEEESTPPTKTQIVGWPPVRSSRKNNNSVSYVKVSMDGAPYLRKIDLKTYKNYPELLKALENMFKVMIGEYCEREGYKGSGFVPTYEDKDGDWMLVGDVPWDMFSSSCKRLRIMKGSDAPALDSSL"}
{"partner": "IAA7 (Arabidopsis thaliana, UniProt Q38825)", "positive tests": 1}
{"partner": "IAA20 (Arabidopsis thaliana, UniProt O24410)", "setting": "weak activation fusion", "positive tests": 2}
{"partner": "IAA18 (Arabidopsis thaliana, UniProt O24408)", "positive tests": 1}
{"partner": "ARF12 500-593 (Arabidopsis thaliana, UniProt Q9XID4)", "positive tests": 0}
{"partner": "IAA29 (Arabidopsis thaliana, UniProt Q93WC4)", "positive tests": 0}
{"partner": "ARF5 788-902 (Arabidopsis thaliana, UniProt P93024)", "positive tests": 3}
{"partner": "ARF2 727-859 (Arabidopsis thaliana, UniProt Q94JM3)", "positive tests": 1}
{"partner": "IAA9 (Arabidopsis thaliana, UniProt Q38827)", "positive tests": 4}
{"data": "Sample 3", "target": "ABI1, truncated, D143A, DHFR fusion (Arabidopsis thaliana, UniProt P49597)", "method": "DHFR PCA, dose-response", "matrix": "yeast", "setting": "Hill fit, mean, not affinity", "added": "(+)-ABA, dose series", "direction": "lower = more sensitive", "starting sequence": "PYL1, truncated, DHFR fusion (Arabidopsis thaliana, UniProt Q8VZS8); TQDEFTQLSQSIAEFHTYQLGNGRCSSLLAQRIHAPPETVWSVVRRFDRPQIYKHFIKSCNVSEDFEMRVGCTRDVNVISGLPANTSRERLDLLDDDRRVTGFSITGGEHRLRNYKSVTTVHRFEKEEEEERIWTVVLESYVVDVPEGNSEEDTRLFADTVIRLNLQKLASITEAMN"}
{"Variant": "Q167I", "ABA EC50 [µM]": 5.44}
{"Variant": "S9N", "ABA EC50 [µM]": 8.03}
{"Variant": "D65I", "ABA EC50 [µM]": 18.7}
{"Variant": "Y18N", "ABA EC50 [µM]": 12}
{"Variant": "K116N", "ABA EC50 [µM]": 33.5}
{"Variant": "K58H", "ABA EC50 [µM]": 5.26}
{"Variant": "L29A", "ABA EC50 [µM]": 66.1}
{"Variant": "S42R", "ABA EC50 [µM]": 3.59}
{"data": "Further values, each from its own experiment"}
{"Sequence": "ANFMPYYEIMVSDP", "target": "UDP-N-acetylglucosamine--peptide N-acetylglucosaminyltransferase 110 kDa subunit (OGT, Homo sapiens, UniProt O15294)", "assay": "binding, phage display NGS", "test system": "peptide", "conditions": "concentration not given, panning round 2", "how to read": "reference: input library", "endpoint": "enrichment fold change", "result": 3.06}
{"note": "Some of these lines once more (sample 2):"}
{"partner": "IAA29 (Arabidopsis thaliana, UniProt Q93WC4)", "positive tests": 0}
{"partner": "ARF5 788-902 (Arabidopsis thaliana, UniProt P93024)", "positive tests": 3}
{"partner": "ARF2 727-859 (Arabidopsis thaliana, UniProt Q94JM3)", "positive tests": 1}
{"partner": "IAA9 (Arabidopsis thaliana, UniProt Q38827)", "positive tests": 4}
